Measurements collected from several papers.
Each line is one published result; not all experiments were run side by side. Numbers after ± are the reported error. In brackets after ≈: the same amount, converted by molar mass.

| SMILES | target or system | assay | test system | setting | how to read | quantity | result |
| --- | --- | --- | --- | --- | --- | --- | --- |
| CC[C@H](C)[C@H](NC(=O)[C@H](C)NC(=O)[C@H](CCCCN)NC(=O)[C@H](CC(C)C)NC(=O)[C@H](C)NC(=O)[C@@H](NC(=O)[C@H](Cc1c[nH]cn1)NC(=O)[C@H](CC(C)C)NC(=O)[C@@H](NC(=O)[C@@H](NC(=O)[C@H](CCCCN)NC(=O)[C@H](C)NC(=O)[C@H](C)NC(=O)[C@H](CO)NC(=O)[C@H](CCCCN)NC(=O)[C@H](Cc1ccccc1)NC(=O)[C@@H](NC(=O)[C@H](CCCCN)NC(=O)[C@H](CC(C)C)NC(=O)[C@H](Cc1ccccc1)NC(=O)[C@H](CO)NC(=O)[C@H](CCCCN)NC(=O)[C@H](Cc1c[nH]c2ccccc12)NC(=O)[C@H](CCCCN)NC(C)=O)[C@@H](C)O)[C@@H](C)O)C(C)C)[C@@H](C)O)C(=O)N[C@@H](CO)C(=O)N[C@@H](CO)C(N)=O | Klebsiella pneumoniae | – | ATCC 1706 | – | – | MIC geometric mean | 2 µg/mL (≈ 0.682 µM) |
| CC#C[C@]1(O)CC[C@H]2[C@@H]3CCC4=CC(=O)CCC4=C3[C@@H](c3ccc(N(C)C)cc3)C[C@@]21C | human coronavirus OC43 | virus-induced cell killing | MRC-5 | screen | – | maximum inhibition | 23.9% |
| COC(=O)N[C@H](C(=O)N1CCC[C@H]1c1ncc(-c2ccc(-c3ccc(-c4cnc([C@@H]5CCCN5C(=O)[C@@H](NC(=O)OC)C(C)C)[nH]4)cc3)cc2)[nH]1)C(C)C | Hepatitis C virus | – | replicon cells | 75% effect level, added: IFN-alpha, ratio 2.5:1 | – | combination index | 0.53 |
| COc1ccccc1-c1cc(Nc2cccc(CS(N)(=O)=O)c2)ncn1 | mouse hepatitis virus | viral replication | nanoluciferase reporter | 1 µM | – | inhibition | -17% |
| Nc1ncnc2c1ncn2[C@@H]1O[C@@H]2COP(=O)(O)O[C@H]3[C@@H](O)[C@H](n4cnc5c(=O)[nH]cnc54)O[C@@H]3COP(=O)(O)O[C@H]2[C@H]1O | West Nile virus | RNA sequencing, refers to: organization, extracellular matrix, R-HSA-1474244 | HFF-1 cells | concentration not given, downregulated pathway | baseline: WNV-infected untreated cells | fold enrichment | 5.04 |
| C[C@H]1c2cccc(O)c2C(=O)C2=C(O)[C@]3(O)C(=O)C(C(N)=O)=C(O)[C@@H](N(C)C)[C@@H]3[C@@H](O)[C@@H]21 | Staphylococcus, coagulase-negative | – | – | – | – | MIC90 | 4 µg/mL (≈ 9 µM) |
| CCCCN(CCCC)CCCNC(=O)c1ccc2nc(N3CCCCC3)sc2c1 | Vero-E6 | CellTiter-Glo ATP | – | concentration not given, 72 h, second round 5-point | baseline: DMSO 0%, hyamine -100%, more negative, more toxic | cytotoxicity efficacy | 0% |
| Cc1nc(Nc2ncc(C(=O)Nc3c(C)cccc3Cl)s2)cc(N2CCN(CCO)CC2)n1 | human coronavirus OC43 | virus-induced cell killing | MRC-5 | maximum over 10 doses | – | maximum inhibition | 0% |
| C[C@@H]1C[C@@H]([C@H](O)CC2CC(=O)NC(=O)C2)C(=O)[C@@H](C)C1 | Mus musculus | gene silencing, high-content imaging | LDR reporter GFP cells | 30 h, retest run 1 | – | Emax | 26% |
| OC[C@H]1O[C@@H](n2ccc3c(SCc4ccc(Cl)cc4Cl)ncnc32)[C@H](O)[C@@H]1O | Toxoplasma gondii | intracellular parasite growth, [3H]uracil incorporation | human foreskin fibroblasts, RH wild type | – | – | IC50 | 11.3 ± 0.9 µM |
| O=C(O)c1ccc2c(c1)nc(Nc1cccc(Cl)c1)c1ccncc12 | human coronavirus OC43 | virus-induced cell killing | MRC-5 | screen | – | maximum inhibition | 8.72% |
| Cn1c(=O)ccc2ccc(F)c(CCNC[C@H]3CN(c4cnc5c(n4)NC(=O)CO5)C(=O)O3)c21 | Stenotrophomonas maltophilia | – | – | – | – | MIC50 | 0.06 µg/mL (≈ 0.128 µM) |
| C[C@@H](N)[C@H]1CC[C@H](C(=O)Nc2ccncc2)CC1 | mouse hepatitis virus | viral replication | nanoluciferase reporter | 1 µM | – | inhibition | 11% |
| CC[C@]1(O)C[C@H]2CN(CCc3c([nH]c4ccccc34)[C@@](C(=O)OC)(c3cc4c(cc3OC)N(C=O)[C@H]3[C@@](O)(C(=O)OC)[C@H](OC(C)=O)[C@]5(CC)C=CCN6CC[C@]43[C@@H]65)C2)C1 | human coronavirus OC43 | virus-induced cell killing | MRC-5 | maximum over 10 doses | – | maximum inhibition | 0% |
| CCN1CCN(c2cc(C)c3cc(NC(=O)c4cccc(Cl)c4)ccc3n2)CC1 | Vero-E6 | CellTiter-Glo ATP | – | concentration not given, 72 h, first round 5-point | baseline: DMSO 0%, hyamine -100%, more negative, more toxic | cytotoxicity efficacy | 0% |

Repeated from above:
| SMILES | target or system | assay | test system | setting | how to read | quantity | result |
| --- | --- | --- | --- | --- | --- | --- | --- |
| CCCCN(CCCC)CCCNC(=O)c1ccc2nc(N3CCCCC3)sc2c1 | Vero-E6 | CellTiter-Glo ATP | – | concentration not given, 72 h, second round 5-point | baseline: DMSO 0%, hyamine -100%, more negative, more toxic | cytotoxicity efficacy | 0% |
| Cc1nc(Nc2ncc(C(=O)Nc3c(C)cccc3Cl)s2)cc(N2CCN(CCO)CC2)n1 | human coronavirus OC43 | virus-induced cell killing | MRC-5 | maximum over 10 doses | – | maximum inhibition | 0% |
